# Measurements collected from several papers.
# Protocols differ between the studies behind these lines. ± marks the error that the study gave.
# Sequence of UniProt P08684 (whole entry, looked up): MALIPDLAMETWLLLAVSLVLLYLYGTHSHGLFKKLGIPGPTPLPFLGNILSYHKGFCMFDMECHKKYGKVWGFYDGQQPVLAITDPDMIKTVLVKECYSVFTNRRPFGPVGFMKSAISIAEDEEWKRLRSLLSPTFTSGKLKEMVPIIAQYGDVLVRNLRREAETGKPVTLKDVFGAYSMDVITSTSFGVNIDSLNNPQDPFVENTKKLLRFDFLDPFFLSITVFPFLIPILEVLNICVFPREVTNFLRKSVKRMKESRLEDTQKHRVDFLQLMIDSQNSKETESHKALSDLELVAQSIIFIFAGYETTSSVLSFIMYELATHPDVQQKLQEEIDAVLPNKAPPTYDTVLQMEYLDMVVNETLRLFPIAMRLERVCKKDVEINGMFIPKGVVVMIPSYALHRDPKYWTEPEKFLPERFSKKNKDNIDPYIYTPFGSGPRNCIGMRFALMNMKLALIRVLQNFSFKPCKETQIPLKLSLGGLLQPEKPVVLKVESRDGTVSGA
# Sequence of UniProt P05181 (whole entry, looked up): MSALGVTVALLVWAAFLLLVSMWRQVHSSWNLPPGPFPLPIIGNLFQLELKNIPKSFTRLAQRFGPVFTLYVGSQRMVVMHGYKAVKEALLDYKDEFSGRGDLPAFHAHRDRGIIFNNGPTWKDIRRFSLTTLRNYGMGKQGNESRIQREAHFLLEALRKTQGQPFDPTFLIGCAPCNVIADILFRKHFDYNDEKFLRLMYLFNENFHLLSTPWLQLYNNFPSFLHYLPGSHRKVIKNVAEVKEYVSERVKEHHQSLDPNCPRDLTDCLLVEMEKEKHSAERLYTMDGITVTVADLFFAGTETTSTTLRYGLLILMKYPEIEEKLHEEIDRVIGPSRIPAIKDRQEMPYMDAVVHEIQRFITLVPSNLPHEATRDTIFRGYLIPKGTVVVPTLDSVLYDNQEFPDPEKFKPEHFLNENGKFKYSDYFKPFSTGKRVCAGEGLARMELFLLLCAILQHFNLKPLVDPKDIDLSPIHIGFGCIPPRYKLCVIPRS
# Sequence of UniProt P05177 (whole entry, looked up): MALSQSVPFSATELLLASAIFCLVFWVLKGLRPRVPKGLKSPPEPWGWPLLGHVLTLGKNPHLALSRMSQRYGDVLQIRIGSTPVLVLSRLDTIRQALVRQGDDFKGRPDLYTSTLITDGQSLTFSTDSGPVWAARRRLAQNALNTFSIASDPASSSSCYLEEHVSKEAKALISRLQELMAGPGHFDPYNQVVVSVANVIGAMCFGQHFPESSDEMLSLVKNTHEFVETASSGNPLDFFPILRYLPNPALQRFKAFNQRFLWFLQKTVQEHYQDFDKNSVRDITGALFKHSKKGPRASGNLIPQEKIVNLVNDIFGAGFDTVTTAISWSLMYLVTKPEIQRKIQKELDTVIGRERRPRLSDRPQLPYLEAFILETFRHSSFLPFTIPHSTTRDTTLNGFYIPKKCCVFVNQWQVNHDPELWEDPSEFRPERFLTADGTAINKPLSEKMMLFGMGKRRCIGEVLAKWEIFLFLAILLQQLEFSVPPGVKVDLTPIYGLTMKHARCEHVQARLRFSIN
Compound,target,assay,system,setting,endpoint,value
O=C(O)c1cc(Br)c(O)c(Br)c1,"Cytochrome P450 2E1 (CYP2E1, Homo sapiens, UniProt P05181)","p-nitrophenol hydroxylation, inhibitor",baculosomes,additive 10 nM,Ki,5 nM
COc1ccc2cc(NC(=O)c3cc(-c4ccncc4)nc4ccccc34)ccc2c1,"Cytochrome P450 3A4 (CYP3A4, Homo sapiens, UniProt P08684)",inhibitor,,,Ki,70 nM
[64Cu+2].c1cnc(CNCc2ccc(CN3CCCN4CCNCCCN(CC4)CC3)cc2)nc1,CXCR4,,"NOD/SCID mouse, U87 and U87-stb-CXCR4 xenografts, lungs","iv, 90 min, no blocking dose, ex vivo",tissue uptake,3.15 ± 0.15 %ID/g
COc1ccc(CC(O)C(=O)O)cc1O (centres unmarked),cytochrome P450 (rat),substrate,NADPH-fortified rat liver microsomes,,demethylation,not detected
C=CC(=O)Nc1cc(Nc2nccc(-c3cn(C)c4ccccc34)n2)c(OCC(F)(F)F)nc1N(C)CCN(C)C,"Cytochrome P450 1A2 (CYP1A2, Homo sapiens, UniProt P05177)","enzyme activity, inhibitor",human liver microsomes,"100 µM, with: phenacetin (O-deethylation)",remaining activity,> 50%
COc1cc(-c2nc3ccccc3s2)cc(CN(Cc2ccccn2)Cc2ccccn2)c1O,Zn2+,UV-vis pH titration,,M2+ + HL = [MHL]+ complex,log K,6.68
C[C@]12CC[C@@H]3c4ccc(OCC(=O)N[C@@H](CCCCNC(=O)CN5CCN(CC(=O)[O-])CCN(CC(=O)[O-])CCN(CC(=O)[O-])CC5)C(=O)O)cc4CC[C@H]3[C@@H]1CCC2=O.[68Ga+3],estrogen receptor,,"nude mice, MCF7 xenograft, tumour","dose not given, 2.5 h post-injection, no blocking dose",radioactivity uptake,2.69 ± 0.62 %ID/g
[64Cu+2].c1ccc(CNCc2ccc(CN3CCCN4CCNCCCN(CC4)CC3)cc2)nc1,CXCR4,,"NOD/SCID mouse, U87 and U87-stb-CXCR4 xenografts, liver","iv, 90 min, ex vivo",tissue uptake,84.7 ± 9.78 %ID/g
